{"data": "Assay results from different studies", "note": "Each numbered part is a random draw from the data of one study; scales do not carry over between parts. Substitutions count along the parent as printed."}
{"data": "Block 1", "target": "Histone acetyltransferase KAT6A, winged helix 1, GST fusion (KAT6A, Homo sapiens, UniProt Q92794, residues 1-85)", "technique": "protein binding microarray", "form": "double-stranded DNA, one strand shown", "sample": "in vitro", "tested at": "not given", "notes": "8-mer, flanks averaged, mean of 2 arrays, mostly near background", "reference": "not given", "direction": "higher = stronger binding", "Residues (chain)": "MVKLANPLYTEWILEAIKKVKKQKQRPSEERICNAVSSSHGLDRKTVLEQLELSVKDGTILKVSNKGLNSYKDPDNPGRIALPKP"}
{"Strand": "AGATGGAT", "E-score": -0.18}
{"Strand": "TAACGGAA", "E-score": 0.244}
{"Strand": "ATGAGAAT", "E-score": -0.0268}
{"Strand": "ATGTACGC", "E-score": 0.109}
{"Strand": "GGTACACA", "E-score": 0.149}
{"Strand": "CCTGACAA", "E-score": -0.202}
{"Strand": "ATACAGAA", "E-score": -0.142}
{"Strand": "AAACTTTA", "E-score": -0.0778}
{"Strand": "CGAGAATC", "E-score": -0.0107}
{"Strand": "CTGCCTGA", "E-score": -0.103}
{"Strand": "ATTTATTC", "E-score": -0.167}
{"Strand": "ATTGTTGC", "E-score": -0.131}
{"Strand": "ACACCGTA", "E-score": 0.307}
{"Strand": "CCCATAAA", "E-score": -0.164}
{"Strand": "CTAGAATA", "E-score": -0.166}
{"Strand": "ACTTCCAG", "E-score": -0.206}
{"Strand": "CCCTCGGA", "E-score": 0.125}
{"Strand": "TACATTGA", "E-score": -0.0991}
{"Strand": "CGCCAGAG", "E-score": 0.107}
{"Strand": "ATTATTCC", "E-score": 0.00786}
{"Strand": "AATAGTAA", "E-score": -0.0175}
{"Strand": "GGCAGAGA", "E-score": -0.0576}
{"Strand": "AGTGTAAT", "E-score": -0.114}
{"Strand": "TCCGCCCA", "E-score": -0.0564}
{"Strand": "AAAAGCAA", "E-score": -0.16}
{"data": "Block 2", "target": "CCNE2, cyclin fold, Cln2 fusion (human)", "technique": "yeast growth competition, sequencing", "sample": "yeast", "notes": "strong parent motif", "reference": "not given", "direction": "higher = stronger binding", "starting sequence": "BRCA2 docking peptide (human); PSIKRNLLNEFDR; partner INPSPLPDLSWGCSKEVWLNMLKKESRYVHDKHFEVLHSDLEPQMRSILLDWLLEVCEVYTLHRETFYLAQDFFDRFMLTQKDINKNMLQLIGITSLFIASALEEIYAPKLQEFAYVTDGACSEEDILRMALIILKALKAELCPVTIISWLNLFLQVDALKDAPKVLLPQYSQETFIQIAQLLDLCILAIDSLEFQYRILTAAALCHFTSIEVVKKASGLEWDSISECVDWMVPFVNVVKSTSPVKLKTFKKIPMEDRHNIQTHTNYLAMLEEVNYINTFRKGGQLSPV"}
{"Change": "PSIKRNLLNEFDN [R13N]", "normalised enrichment score": 1.16}
{"Change": "PSIKRNLLNEGDR [F11G]", "normalised enrichment score": 0.97}
{"Change": "PSIKRNLLNCFDR [E10C]", "normalised enrichment score": 0.302}
{"Change": "PSIKRNLLSEFDR [N9S]", "normalised enrichment score": 1.98}
{"Change": "PSIKRNLLNEFPR [D12P]", "normalised enrichment score": 1.11}
{"Change": "PSIMRNLLNEFDR [K4M]", "normalised enrichment score": 0.433}
{"Change": "PSIKRNLLNEFDP [R13P]", "normalised enrichment score": 0.897}
{"Change": "PSIKRNLVNEFDR [L8V]", "normalised enrichment score": 1.23}
{"Change": "PSIKRNLLREFDR [N9R]", "normalised enrichment score": 2.3}
{"Change": "PSIKRNLLNQFDR [E10Q]", "normalised enrichment score": 0.759}
{"Change": "PSINRNLLNEFDR [K4N]", "normalised enrichment score": -0.214}
{"Change": "PSIKWNLLNEFDR [R5W]", "normalised enrichment score": 0.547}
{"Change": "PSIKRNVLNEFDR [L7V]", "normalised enrichment score": -0.186}
{"Change": "PSIKRNLLNYFDR [E10Y]", "normalised enrichment score": 1.31}
{"Change": "PSIKRNLLNHFDR [E10H]", "normalised enrichment score": 0.986}
{"Change": "PSIKRNLLNERDR [F11R]", "normalised enrichment score": 0.768}
{"Change": "PSIKRNLKNEFDR [L8K]", "normalised enrichment score": 1.08}
{"Change": "PSRKRNLLNEFDR [I3R]", "normalised enrichment score": 0.455}
{"Change": "PSIKRNLLNEFDL [R13L]", "normalised enrichment score": 1.39}
{"Change": "PSIKRNLLAEFDR [N9A]", "normalised enrichment score": 2.32}
{"Change": "PSIERNLLNEFDR [K4E]", "normalised enrichment score": -0.167}
{"Change": "PSVKRNLLNEFDR [I3V]", "normalised enrichment score": 4.08}
{"Change": "PSIKRNLLNECDR [F11C]", "normalised enrichment score": -0.129}
{"Change": "PSILRNLLNEFDR [K4L]", "normalised enrichment score": 0.658}
{"Change": "PSGKRNLLNEFDR [I3G]", "normalised enrichment score": 0.828}
{"data": "Block 3", "target": "Fragile X messenger ribonucleoprotein 1, C-terminal low-complexity region (Fmr1, Mus musculus, UniProt P35922)", "technique": "RNA Bind-n-Seq", "form": "RNA", "sample": "in vitro", "tested at": "200 nM", "notes": "whole 134-nt RNA, ends assumed", "with": "150 mM LiCl", "reference": "input library", "direction": "higher = stronger binding", "all molecules": "7-deaza-guanosine replaces G"}
{"Strand": "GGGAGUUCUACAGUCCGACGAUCUGGCCCUGGUGGCAUGCGGGGAUGAAGAGGUGGCCUCAUGGAUCGUGGUGGUCCCGGUGGAAUGUUCAGAGGUGGCCGUGGUGGAGACAGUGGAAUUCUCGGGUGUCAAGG", "log2 enrichment": -0.208}
{"Strand": "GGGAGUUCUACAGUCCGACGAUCCCUGUGCUACACAUCGUAUGUACCGAAUCGGGGCCCCCCGGGGCCCCCCGGCCCCCCGGGGAAAGUAUUAUGUUACGCCGUUCGGAUCUGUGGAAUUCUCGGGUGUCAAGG", "log2 enrichment": -2.34}
{"Strand": "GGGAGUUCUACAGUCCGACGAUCAGUCCUGUGCUACACAUCGUAUGUACCGAAUCGGGUUUUUGGGAAAAAAAGGGUGGGAAAGUAUUAUGUUACGCCGUUCGGAUCUGCACUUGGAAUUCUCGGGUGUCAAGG", "log2 enrichment": -2.56}
{"Strand": "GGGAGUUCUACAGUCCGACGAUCAGUCCUGUGCUACACAUCGUAUGUACCGAAUCGGGGAAAAAAAGGGGUGGGGAGGGGAAAGUAUUAUGUUACGCCGUUCGGAUCUGCACUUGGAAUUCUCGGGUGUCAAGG", "log2 enrichment": -0.271}
{"Strand": "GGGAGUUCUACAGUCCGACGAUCUCCUGUGCUACACAUCGUAUGUACCGAAUCGGGGAAAAAGGGGAAAAAAAGGGGAGGGGAAAGUAUUAUGUUACGCCGUUCGGAUCUGCAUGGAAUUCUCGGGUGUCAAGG", "log2 enrichment": 0.0793}
{"Strand": "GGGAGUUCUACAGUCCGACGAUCCCUCAAGUCCUGUGCUACACAUCGUAUGUACCGAAUCGGUUUGGUGGUUUGGAAAGUAUUAUGUUACGCCGUUCGGAUCUGCACUUCCAGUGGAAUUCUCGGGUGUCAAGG", "log2 enrichment": -1.23}
{"Strand": "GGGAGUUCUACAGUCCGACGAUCAGUCCUGUGCUACACAUCGUAUGUACCGAAUCGGGAAAGGGAAAAAAAGGGAAAGGGAAAGUAUUAUGUUACGCCGUUCGGAUCUGCACUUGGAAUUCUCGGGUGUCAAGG", "log2 enrichment": -0.921}
{"Strand": "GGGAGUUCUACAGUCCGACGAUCCCUGUGCUACACAUCGUAUGUACCGAAUCGGGGAAAAAAGGAAAAAAGGGGAAAAAAGGGGAAAGUAUUAUGUUACGCCGUUCGGAUCUGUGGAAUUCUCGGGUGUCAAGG", "log2 enrichment": 0.846}
{"data": "Block 4", "target": "Prothrombin, mature alpha-thrombin (F2, Homo sapiens, UniProt P00734)", "technique": "aptamer microarray, sandwich", "form": "DNA with 2'F-ANA", "sample": "in vitro", "tested at": "200 nM", "notes": "whole 15-mer aptamer, many near background", "with": "Cy3 exosite-II aptamer, 400 nM", "direction": "higher = stronger binding", "strand": "GGTTGGTGTGGTTGG"}
{"Modification": "2'F-ANA at 1 3 4 5 6 8 10 13 15", "mean fluorescence intensity": "59.5 a.u."}
{"Modification": "2'F-ANA at 2 4 5 7 9", "mean fluorescence intensity": "71.4 a.u."}
{"Modification": "2'F-ANA at 1 2 3 4 5 7 13 14", "mean fluorescence intensity": "44 a.u."}
{"Modification": "2'F-ANA at 5 6 7 8 14 15", "mean fluorescence intensity": "43.9 a.u."}
{"Modification": "2'F-ANA at 3 7 11 12 13 15", "mean fluorescence intensity": "1210 a.u."}
{"Modification": "2'F-ANA at 1 3 5 6 7 8 11 12 13", "mean fluorescence intensity": "92.2 a.u."}
{"Modification": "2'F-ANA at 4 5 8 9 10 11 12 14 15", "mean fluorescence intensity": "56.5 a.u."}
{"Modification": "2'F-ANA at 1 2 3 4 7 11 12 13", "mean fluorescence intensity": "203 a.u."}
{"Modification": "2'F-ANA at 1 3 7 8 12 14", "mean fluorescence intensity": "179 a.u."}
{"Modification": "2'F-ANA at 5 7 8 11 12 13 14 15", "mean fluorescence intensity": "67.5 a.u."}
{"Modification": "2'F-ANA at 10 11 12 13 14 15", "mean fluorescence intensity": "102 a.u."}
{"Modification": "2'F-ANA at 3 6 9 10 11 12 13 14 15", "mean fluorescence intensity": "331 a.u."}
{"Modification": "2'F-ANA at 2 3 7 8 9 11 12", "mean fluorescence intensity": "1040 a.u."}
{"Modification": "2'F-ANA at 1 2 4 7 8 9 13 14", "mean fluorescence intensity": "61.4 a.u."}
{"Modification": "2'F-ANA at 1 4 5 6 10 11 14", "mean fluorescence intensity": "50.6 a.u."}
{"Modification": "2'F-ANA at 1 2 4 5 9 12", "mean fluorescence intensity": "126 a.u."}
{"Modification": "2'F-ANA at 2 3 4 5 7 8 9 11 13", "mean fluorescence intensity": "65.7 a.u."}
{"Modification": "2'F-ANA at 2 4 7 9 11 13", "mean fluorescence intensity": "264 a.u."}
{"Modification": "2'F-ANA at 2 3 4 8 11 13", "mean fluorescence intensity": "496 a.u."}
{"Modification": "2'F-ANA at 2 3 5 7 8 10 12 13 14 15", "mean fluorescence intensity": "255 a.u."}
{"Modification": "2'F-ANA at 1 4 5 7 9 10 14", "mean fluorescence intensity": "47.5 a.u."}
{"Modification": "2'F-ANA at 2 3 4 7 8 9 12 15", "mean fluorescence intensity": "966 a.u."}
{"Modification": "2'F-ANA at 1 2 5 6 8 10 13 14 15", "mean fluorescence intensity": "49.2 a.u."}
{"Modification": "2'F-ANA at 1 3 4 5 6 14 15", "mean fluorescence intensity": "59.7 a.u."}
